Experimental data collected from several papers.
Values joined by “and” are separate records of one study, mostly repeats; a detail may differ. ± gives the spread as reported.
rep main protease: Replicase polyprotein 1ab, main protease (rep, Severe acute respiratory syndrome coronavirus 2, UniProt P0DTD1)
Spike glycoprotein: Spike glycoprotein (Severe acute respiratory syndrome coronavirus 2, UniProt P0DTC2)
Sequence of UniProt P78348 (whole entry, looked up): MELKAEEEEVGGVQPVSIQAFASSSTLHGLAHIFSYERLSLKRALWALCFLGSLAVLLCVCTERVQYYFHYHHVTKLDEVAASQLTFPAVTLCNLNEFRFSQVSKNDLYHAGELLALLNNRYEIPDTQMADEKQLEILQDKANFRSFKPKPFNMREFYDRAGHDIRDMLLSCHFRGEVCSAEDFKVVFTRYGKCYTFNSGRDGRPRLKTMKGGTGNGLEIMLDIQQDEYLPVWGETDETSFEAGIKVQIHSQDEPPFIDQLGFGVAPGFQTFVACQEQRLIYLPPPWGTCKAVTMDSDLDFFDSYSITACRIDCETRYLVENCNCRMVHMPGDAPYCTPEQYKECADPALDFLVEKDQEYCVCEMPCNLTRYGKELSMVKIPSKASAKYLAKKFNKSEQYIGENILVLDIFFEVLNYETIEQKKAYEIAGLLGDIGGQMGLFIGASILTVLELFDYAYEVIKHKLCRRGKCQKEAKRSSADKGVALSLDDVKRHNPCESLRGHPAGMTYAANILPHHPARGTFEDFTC
Sequence of UniProt Q7BQ98 (whole entry, looked up): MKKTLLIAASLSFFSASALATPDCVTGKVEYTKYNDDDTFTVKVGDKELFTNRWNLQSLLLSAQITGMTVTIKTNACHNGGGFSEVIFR

Nc1ncnc2c([C@@H]3N[C@H](CO)[C@@H](O)[C@H]3O)c[nH]c12  inhibition (Marburg virus; surface glycoprotein expression; HeLa, Musoke; 100 µM, 12 h): 94.3%
CC[C@H](C)[C@H](NC(=O)[C@H]([C@@H](C)CC)N(C)C(C)=O)C(=O)N[C@H](C(=O)N[C@@H](CC(C)C)C(=O)[C@@]1(C)CO1)[C@@H](C)O  inhibition (rep main protease; reporter gene (Gaussia luciferase), inhibitor; 20 µM): -4.4%
CC[C@H](C)[C@H](NC(=O)[C@@H]1CCCN1C(=O)[C@H](C)NC(=O)[C@@H]1CSSC[C@@H]2NC(=O)[C@H](CC(=O)O)NC(=O)[C@H](CCCNC(=N)N)NC(=O)[C@H](CCC(=O)O)NC(=O)[C@H](CCCNC(=N)N)NC(=O)CNC(=O)[C@H](CC(=O)O)NC(=O)[C@@H]3CSSC[C@H](NC(=O)[C@H](CCC(=O)O)NC(=O)[C@H](CC(C)C)NC(=O)CNC(=O)[C@H](C)NC(=O)[C@H](CSSC[C@H](NC(=O)[C@H](Cc4ccccc4)NC(=O)[C@@H](N)CO)C(=O)N[C@@H](CC(C)C)C(=O)N[C@@H](C(C)C)C(=O)N[C@@H](CCCCN)C(=O)N[C@@H](Cc4c[nH]c5ccccc45)C(=O)N[C@@H](CCCCN)C(=O)N[C@@H](CCC(N)=O)C(=O)N3)NC2=O)C(=O)N[C@@H](Cc2c[nH]c3ccccc23)C(=O)N[C@@H](CCCCN)C(=O)N[C@@H](CCCNC(=N)N)C(=O)N[C@@H](CO)C(=O)NCC(=O)N[C@@H](CC(N)=O)C(=O)N[C@@H](CCCCN)C(=O)N[C@@H](CO)C(=O)N[C@@H](CO)C(=O)N[C@@H](C(C)C)C(=O)N1)C(=O)N[C@H](C(=O)O)[C@@H](C)O  deactivation slowing (ASIC1 (Homo sapiens, UniProt P78348); outside-out patch clamp; HEK-293T ASIC1a knockout; 10 nM, wild type; baseline: no toxin): 2.6 ± 0.3 fold
CC[C@H](C)[C@H](NC(=O)[C@H](CC(C)C)NC(=O)[C@H](Cc1c[nH]c2ccccc12)NC(=O)[C@H](CCC(N)=O)NC(=O)[C@@H](NC(=O)[C@H](Cc1ccccc1)NC(=O)[C@H](C)NC(=O)[C@H](CCCCNC(=O)COCCOCCNC(=O)COCCOCCNC(=O)CC[C@H](NC(=O)CCCCCCCCCCCCCCCCCCC(=O)O)C(=O)O)NC(=O)[C@H](CCC(N)=O)NC(=O)[C@H](C)NC(=O)[C@@H](NC(=O)[C@H](CCCCN)NC(=O)[C@H](CC(=O)O)NC(=O)[C@H](CC(C)C)NC(=O)C(C)(C)NC(=O)[C@@H](NC(=O)[C@H](CO)NC(=O)[C@H](Cc1ccc(O)cc1)NC(=O)[C@H](CC(=O)O)NC(=O)[C@H](CO)NC(=O)[C@@H](NC(=O)[C@H](Cc1ccccc1)NC(=O)[C@@H](NC(=O)CNC(=O)[C@H](CCC(=O)O)NC(=O)C(C)(C)NC(=O)[C@@H](N)Cc1ccc(O)cc1)[C@@H](C)O)[C@@H](C)O)[C@@H](C)CC)[C@@H](C)CC)C(C)C)C(=O)N[C@@H](C)C(=O)NCC(=O)NCC(=O)N1CCC[C@H]1C(=O)N[C@@H](CO)C(=O)N[C@@H](CO)C(=O)NCC(=O)N[C@@H](C)C(=O)N1CCC[C@H]1C(=O)N1CCC[C@H]1C(=O)N1CCC[C@H]1C(=O)N[C@@H](CO)C(N)=O  subjects with adverse event (refers to: treatment-emergent decreased appetite; healthy subjects; 4.5 mg, multiple ascending dose): 83.3%
CC(C(=O)NC[C@H](NC(=O)c1[nH]nc2nc[nH]c(=O)c12)c1ccc2ccccc2c1)=C1CCC1  inhibition (rep main protease; enzyme activity; 5 µM): 15%
O=C(NCCCCCCCCCCCCNC(=O)c1cc(OCc2cn([C@@H]3O[C@H](CO)[C@H](O[C@H]4O[C@H](CO)[C@H](O)[C@H](O)[C@H]4O)[C@H](O)[C@H]3O)nn2)cc(OCc2cn([C@@H]3O[C@H](CO)[C@H](O[C@H]4O[C@H](CO)[C@H](O)[C@H](O)[C@H]4O)[C@H](O)[C@H]3O)nn2)c1)c1cc(OCc2cn([C@@H]3O[C@H](CO)[C@H](O[C@H]4O[C@H](CO)[C@H](O)[C@H](O)[C@H]4O)[C@H](O)[C@H]3O)nn2)cc(OCc2cn([C@@H]3O[C@H](CO)[C@H](O[C@H]4O[C@H](CO)[C@H](O)[C@H](O)[C@H]4O)[C@H](O)[C@H]3O)nn2)c1  Hill slope (Shiga toxin subunit B (stxB, Shigella dysenteriae, UniProt Q7BQ98); Escherichia coli): -1.06
Cn1cnc(Cn2c(=O)[nH]/c(=N\c3cc4cn(C)nc4cc3Cl)n(Cc3cc(F)c(F)cc3F)c2=O)n1  patients with adverse event (human, all renal function groups; oral, 375 mg, vessel puncture site haemorrhage TEAE, Moderate severity): 0%
CC1(C)[C@@H](O)CC[C@]2(C)[C@H]3C(=O)C=C4[C@@H]5C[C@@](C)(C(=O)O)CC[C@]5(C)CC[C@@]4(C)[C@]3(C)CC[C@@H]12  koff (Spike glycoprotein; binding, BLI): 0.0115 s⁻¹
CC(=O)c1ccc(NC2=C(Cl)C(=O)c3ccccc3C2=O)cc1  inhibition (rep main protease; viral replication, mKate2 reporter; SARS-CoV-2; 20 µM): -1.41%
Nc1ccccc1-c1noc(-c2ccncc2)n1  ligand efficiency (Spike glycoprotein, receptor-binding domain (Severe acute respiratory syndrome coronavirus 2, UniProt P0DTC2); RBD-ACE2 binding, inhibitor, ELISA; from pIC50): 0.385
COc1cc(N2CCN(C)CC2)ccc1Nc1ncc2c(n1)N(C)c1ccccc1C(=O)N2  inhibition (rep main protease; viral replication, Gluc reporter; SARS-CoV-2; 20 µM): 0.387%
O=C(/C=C/c1ccc(O)c(O)c1)OC[C@H]1O[C@@H](OCCc2ccc(O)c(O)c2)[C@H](O)[C@@H](O)[C@@H]1O  koff (Spike glycoprotein; binding, BLI): 0.00353 s⁻¹
O=C(NC[C@@H]1Cc2ccccc2CN1C(=O)c1nnn2ccccc12)c1cccc2[nH]ncc12  inhibition (rep main protease; enzyme activity, inhibitor; 5 µM, mean of runs): 10.3%
CCc1c(C(=O)C(N)=O)c2c(OCC(=O)O)cccc2n1Cc1ccccc1  remaining activity (Daboia russelii venom phospholipase A2; enzyme activity, inhibitor; PB population; 0.001 µM, together with: NOB substrate; baseline: venom alone): 100% and 97.5%
Nc1ccc(C(=O)N2CC3(CCC3)C[C@H]2CNC(=O)c2cncc3ccccc23)cc1O  inhibition (rep main protease; enzyme activity, inhibitor; 5 µM, run 2): 26.6%
COc1ccccc1Nc1nc(-c2sc(NC(C)=O)nc2C)cs1  inhibition (rep main protease; viral replication, Gluc reporter; SARS-CoV-2; 20 µM): -5.11%

Some of these lines once more:
O=C(/C=C/c1ccc(O)c(O)c1)OC[C@H]1O[C@@H](OCCc2ccc(O)c(O)c2)[C@H](O)[C@@H](O)[C@@H]1O  koff (Spike glycoprotein; binding, BLI): 0.00353 s⁻¹
CCc1c(C(=O)C(N)=O)c2c(OCC(=O)O)cccc2n1Cc1ccccc1  remaining activity (Daboia russelii venom phospholipase A2; enzyme activity, inhibitor; PB population; 0.001 µM, together with: NOB substrate; baseline: venom alone): 100% and 97.5%
